Assay results gathered from unrelated publications.
Lines come from different studies, so protocols differ.
B1: comFB 1-98 D33A (Bacillus subtilis, UniProt P39146); chain MLVNSKEIVMKELLDRYMDQLHMACTCQVCQNAVLALSLNKVSPSYVTDFKKIAYTKAELVDKQKNTAMLVILAESAAVVSESPSDLCQTKQEEAFIN
B2: PRDX3 S139E/A142E (Homo sapiens, UniProt P30048); chain APAVTQHAPYFKGTAVVNGEFKDLSLDDFKGKYLVLFFYPLDFTFVCPTEIVAFSDKANEFHDVNCEVVAVSVDSHFEHLEWINTPRKNGGLGHMNIALLSDLTKQISRDYGVLLEGSGLALRGLFIIDPNGVIKHLSVNDLPVGRSVEETLRLVKAFQYVETHGEVCPANWTPDSPTIKPSPAASKEYFQKVNQ
B3: lexA K156A (Escherichia coli, UniProt P0A7C2); sequence looked up; chain MKALTARQQEVFDLIRDHISQTGMPPTRAEIAQRLGFRSPNAAEEHLKALARKGVIEIVSGASRGIRLLQEEEEGLPLVGRVAAGEPLLAQQHIEGHYQVDPSLFKPNADFLLRVSGMSMKDIGIMDGDLLAVHKTQDVRNGQVVVARIDDEVTVARLKKQGNKVELLPENSEFKPIVVDLRQQSFTIEGLAVGVIRNGDWL
B4: human hnRNP F; sequence looked up; chain MMLGPEGGEGFVVKLRGLPWSCSVEDVQNFLSDCTIHDGAAGVHFIYTREGRQSGEAFVELGSEDDVKMALKKDRESMGHRYIEVFKSHRTEMDWVLKHSGPNSADSANDGFVRLRGLPFGCTKEEIVQFFSGLEIVPNGITLPVDPEGKITGEAFVQFASQELAEKALGKHKERIGHRYIEVFKSSQEEVRSYSDPPLKFMSVQRPGPYDRPGTARRYIGIVKQAGLERMRPGAYSTGYGGYEEYSGLSDGYGFTTDLFGRDLSYCLSGMYDHRYGDSEFTVQSTTGHCVHMRGLPYKATENDIYNFFSPLNPVRVHIEIGPDGRVTGEADVEFATHEEAVAAMSKDRANMQHRYIELFLNSTTGASNGAYSSQVMQGMGVSAAQATYSGLESQSVSGCYGAGYSGQNSMGGYD
B5: PHYA 1-876 F745E (Arabidopsis thaliana, UniProt P14712); phytochromobilin thioether linked; chain GMSGSRPTQSSEGSRRSRHSARIIAQTTVDAKLHADFEESGSSFDYSTSVRVTGPVVENQPPRSDKVTTTYLHHIQKGKLIQPFGCLLALDEKTFKVIAYSENASELLTMASHAVPSVGEHPVLGIGTDIRSLFTAPSASALQKALGFGDVSLLNPILVHCRTSAKPFYAIIHRVTGSIIIDFEPVKPYEVPMTAAGALQSYKLAAKAITRLQSLPSGSMERLCDTMVQEVFELTGYDRVMAYKFHEDDHGEVVSEVTKPGLEPYLGLHYPATDIPQAARFLFMKNKVRMIVDCNAKHARVLQDEKLSFDLTLCGSTLRAPHSCHLQYMANMDSIASLVMAVVVNEEDGEGDAPDATTQPQKRKRLWGLVVCHNTTPRFVPFPLRYACEFLAQVFAIHVNKEVELDNQMVEKNILRTQTLLCDMLMRDAPLGIVSQSPNIMDLVKCDGAALLYKDKIWKLGTTPSEFHLQEIASWLCEYHMDSTGLSTDSLHDAGFPRALSLGDSVCGMAAVRISSKDMIFWFRSHTAGEVRWGGAKHDPDDRDDARRMHPRSSFKAFLEVVKTRSLPWKDYEMDAIHSLQLILRNAFKDSETTDVNTKVIYSKLNDLKIDGIQELEAVTSEMVRLIETATVPILAVDSDGLVNGWNTKIAELTGLSVDEAIGKHFLTLVEDSSVEIVKRMLENALEGTEEQNVQFEIKTHLSRADAGPISLVVNACASRDLHENVVGVCFVAHDLTGQKTVMDKETRIEGDYKAIIQNPNPLIPPIFGTDEFGWCTEWNPAMSKLTGLKREEVIDKMLLGEVFGTQKSCCRLKNQEAFVNLGIVLNNAVTSQDPEKVSFAFFTRGGKYVECLLCVSKKLDREGVVTGVFCFLQLAS
B6: OsCATC T105A (Oryza sativa, UniProt Q10S82); sequence looked up; chain MDPYKHRPSSSFNGPLWSTNSGAPVWNNNNSLTVGSRGPILLEDYHLVEKLANFDRERIPERVVHARGASAKGFFEVTHDITHLTCADFLRAPGVQTPVIVRFSAVIHERGSPETLRDPRGFAIKFYTREGNWDLVGNNFPVFFIRDGMKFPDMVHSLKPNPKSHVQENWRILDFFSHHPESLHMFTFLFDDIGIPADYRHMDGSGVNTYTLVNRAGKSHYVKFHWKPTCGVKSLLDDEAVTVGGTNHSHATQDLYDSIAAGNFPEWKLFIQTIDPDHEDRFDFDPLDVTKTWPEDIVPLQPVGRMVLNRNIDNFFSENEQLAFCPGIIVPGIYYSDDKLLQTRIFSYSDTQRHRLGPNYLLLPPNAPKCAHHNNHYDGFMNFMHRDEEVDYFPSRYDPAKHAPRYPIPSATLTGRREKVVIAKENNFKQPGERYRSWDPARQDRFIKRWIDALSDPRLTHEIRSIWLSYWSQADRSLGQKLASRLSAKPSM
B7: SPOP M48I (Homo sapiens, UniProt O43791); sequence looked up; chain MSRVPSPPPPAEMSSGPVAESWCYTQIKVVKFSYMWTINNFSFCREEIGEVIKSSTFSSGANDKLKWCLRVNPKGLDEESKDYLSLYLLLVSCPKSEVRAKFKFSILNAKGEETKAMESQRAYRFVQGKDWGFKKFIRRDFLLDEANGLLPDDKLTLFCEVSVVQDSVNISGQNTMNMVKVPECRLADELGGLWENSRFTDCCLCVAGQEFQAHKAILAARSPVFSAMFEHEMEESKKNRVEINDVEPEVFKEMMCFIYTGKAPNLDKMADDLLAAADKYALERLKVMCEDALCSNLSVENAAEILILADLHSADQLKTQAVDFINYHASDVLETSGWKSMVVSHPHLVAEAYRSLASAQCPFLGPPRKRLKQS
B8: ph-p 1397-1577 D16K/D17R/D33K/D34R (Drosophila melanogaster, UniProt P39769); chain GVGSGETNGLGTGGIVGVDAMALVDRLDEAMAEEKMQTEATPKLSESFPILGASTEVPPMSLPVQAAISAPSPLAMPLGSPLSVALPTLAPLSVVTSGAAPKSSEVNGTDRPPISSWSVKRVSNFIRELPGCQDYVKRFIQQEIDGQALLLLKEKHLVNAMGMKLGPALKIVAKVESIKEV
B9: CRYAB (Homo sapiens, UniProt P02511); sequence looked up; chain MDIAIHHPWIRRPFFPFHSPSRLFDQFFGEHLLESDLFPTSTSLSPFYLRPPSFLRAPSWFDTGLSEMRLEKDRFSVNLDVKHFSPEELKVKVLGDVIEVHGKHEERQDEHGFISREFHRKYRIPADVDPLTITSSLSSDGVLTVNGPRKQVSGPERTIPITREEKPAVTAAPKK
B10: PRPS3 (human); sequence looked up; chain PNIKIFSGSSHQDLSQKIADRLGLELGKVVTKKFSNQETCVEIDESVRGEDVYIVQSGCGEINDSLMELLIMINACKIASASRVTAVIPCFPYARQDKKDKSRSPISAKLVANMLSIAGADHIITMDLHASQIQGFFDIPVDNLYAEPTVLKWIRENIPEWKNCIIVSPDAGGAKRVTSIADQLNVDFALIHKERKKANEVDCIVLVGDVNDRVAILVDDMADTCVTICLAADKLLSAGATRVYAILTHGIFSGPAISRINTACFEAVVVTNTIPQDEKMKHCSKIRVIDISMILAEAIRRTHNGESVSYLFSHVPL
B11: SPOP M117V (Homo sapiens, UniProt O43791); sequence looked up; chain MSRVPSPPPPAEMSSGPVAESWCYTQIKVVKFSYMWTINNFSFCREEMGEVIKSSTFSSGANDKLKWCLRVNPKGLDEESKDYLSLYLLLVSCPKSEVRAKFKFSILNAKGEETKAVESQRAYRFVQGKDWGFKKFIRRDFLLDEANGLLPDDKLTLFCEVSVVQDSVNISGQNTMNMVKVPECRLADELGGLWENSRFTDCCLCVAGQEFQAHKAILAARSPVFSAMFEHEMEESKKNRVEINDVEPEVFKEMMCFIYTGKAPNLDKMADDLLAAADKYALERLKVMCEDALCSNLSVENAAEILILADLHSADQLKTQAVDFINYHASDVLETSGWKSMVVSHPHLVAEAYRSLASAQCPFLGPPRKRLKQS
UniProt P63138, sequence (whole entry, looked up): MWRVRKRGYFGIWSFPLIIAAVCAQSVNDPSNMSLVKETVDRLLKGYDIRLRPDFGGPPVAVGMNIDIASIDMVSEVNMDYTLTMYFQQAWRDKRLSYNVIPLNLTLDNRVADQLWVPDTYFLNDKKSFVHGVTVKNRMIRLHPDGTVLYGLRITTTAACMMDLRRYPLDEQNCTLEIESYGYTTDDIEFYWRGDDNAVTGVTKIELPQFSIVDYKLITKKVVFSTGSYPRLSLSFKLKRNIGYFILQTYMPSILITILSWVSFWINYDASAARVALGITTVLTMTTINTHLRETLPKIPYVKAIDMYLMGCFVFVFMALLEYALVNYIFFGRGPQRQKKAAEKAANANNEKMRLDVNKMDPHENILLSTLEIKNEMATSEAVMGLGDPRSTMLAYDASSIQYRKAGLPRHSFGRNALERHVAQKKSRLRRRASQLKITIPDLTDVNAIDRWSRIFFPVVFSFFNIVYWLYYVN
UniProt O15523, sequence (whole entry, looked up): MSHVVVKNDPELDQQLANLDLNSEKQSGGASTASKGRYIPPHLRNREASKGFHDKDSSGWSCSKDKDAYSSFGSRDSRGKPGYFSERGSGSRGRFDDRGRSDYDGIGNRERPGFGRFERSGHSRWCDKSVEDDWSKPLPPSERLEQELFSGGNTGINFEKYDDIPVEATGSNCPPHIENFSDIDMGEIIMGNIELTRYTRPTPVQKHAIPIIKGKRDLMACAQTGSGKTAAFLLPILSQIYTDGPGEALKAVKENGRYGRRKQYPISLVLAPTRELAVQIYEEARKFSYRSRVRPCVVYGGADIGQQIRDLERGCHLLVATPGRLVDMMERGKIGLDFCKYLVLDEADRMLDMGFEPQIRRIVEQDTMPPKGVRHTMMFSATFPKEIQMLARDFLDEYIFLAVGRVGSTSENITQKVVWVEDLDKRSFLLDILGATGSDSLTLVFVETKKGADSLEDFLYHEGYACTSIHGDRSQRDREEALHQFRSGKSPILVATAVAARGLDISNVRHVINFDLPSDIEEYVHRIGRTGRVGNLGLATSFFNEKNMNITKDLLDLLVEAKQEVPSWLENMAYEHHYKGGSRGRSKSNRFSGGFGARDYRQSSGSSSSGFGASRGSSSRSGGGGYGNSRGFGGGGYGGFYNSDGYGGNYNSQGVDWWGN
UniProt P18508, sequence (whole entry, looked up): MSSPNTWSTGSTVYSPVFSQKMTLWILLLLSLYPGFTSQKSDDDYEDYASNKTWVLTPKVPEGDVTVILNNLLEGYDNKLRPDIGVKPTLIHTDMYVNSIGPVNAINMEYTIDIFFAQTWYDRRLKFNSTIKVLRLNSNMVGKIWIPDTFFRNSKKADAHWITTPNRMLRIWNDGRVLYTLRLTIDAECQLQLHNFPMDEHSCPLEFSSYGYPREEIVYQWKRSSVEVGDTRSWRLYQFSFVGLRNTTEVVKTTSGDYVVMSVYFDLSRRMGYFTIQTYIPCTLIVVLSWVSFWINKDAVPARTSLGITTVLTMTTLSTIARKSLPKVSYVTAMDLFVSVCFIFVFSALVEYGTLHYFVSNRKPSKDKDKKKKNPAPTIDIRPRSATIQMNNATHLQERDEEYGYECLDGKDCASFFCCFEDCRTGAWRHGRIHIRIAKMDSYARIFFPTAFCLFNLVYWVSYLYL
UniProt P62813, sequence (whole entry, looked up): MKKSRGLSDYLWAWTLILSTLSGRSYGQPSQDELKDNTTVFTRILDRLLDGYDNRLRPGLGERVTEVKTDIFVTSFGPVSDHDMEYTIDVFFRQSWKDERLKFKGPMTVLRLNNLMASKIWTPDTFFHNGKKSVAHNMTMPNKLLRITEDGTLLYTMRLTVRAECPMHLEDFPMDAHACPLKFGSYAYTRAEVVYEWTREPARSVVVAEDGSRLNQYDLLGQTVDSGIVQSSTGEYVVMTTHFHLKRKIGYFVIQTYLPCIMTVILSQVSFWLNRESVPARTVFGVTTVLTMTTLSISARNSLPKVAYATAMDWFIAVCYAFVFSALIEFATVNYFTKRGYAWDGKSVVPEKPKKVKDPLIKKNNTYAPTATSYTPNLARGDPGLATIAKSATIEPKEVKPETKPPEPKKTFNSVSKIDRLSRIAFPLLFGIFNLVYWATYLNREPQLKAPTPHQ
UniProt P26368, sequence (whole entry, looked up): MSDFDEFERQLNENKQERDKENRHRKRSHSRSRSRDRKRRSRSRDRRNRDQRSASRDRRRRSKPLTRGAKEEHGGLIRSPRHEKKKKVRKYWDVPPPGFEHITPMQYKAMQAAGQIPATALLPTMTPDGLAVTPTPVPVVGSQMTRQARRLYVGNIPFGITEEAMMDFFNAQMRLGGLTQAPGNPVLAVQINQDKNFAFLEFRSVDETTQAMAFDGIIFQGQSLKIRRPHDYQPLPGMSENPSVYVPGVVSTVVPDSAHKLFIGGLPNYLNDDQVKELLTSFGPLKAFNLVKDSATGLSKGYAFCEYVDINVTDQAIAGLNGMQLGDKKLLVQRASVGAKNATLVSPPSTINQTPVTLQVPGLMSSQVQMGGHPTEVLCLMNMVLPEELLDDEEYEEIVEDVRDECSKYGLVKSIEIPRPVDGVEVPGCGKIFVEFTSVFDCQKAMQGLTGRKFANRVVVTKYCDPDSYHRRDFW

| Molecule | target or system | assay | system | setting | scale | measurement | value |
| --- | --- | --- | --- | --- | --- | --- | --- |
| UUCUGUUCU (ssRNA) | U2AF2 148-342 (Homo sapiens, UniProt P26368) | sequencing of bound RNA | RNA | motif only | – | Kd | 4030 nM |
| B1 (comFB 1-98 D33A) | itself | SEC-MALS | – | – | – | binding | binds |
| B2 (PRDX3 S139E/A142E) | itself | cross-linking | – | – | – | binding | binds |
| B3 (lexA K156A) | itself | cryo-EM | – | – | – | binding | binds |
| B4 (human hnRNP F) | CYB5R4 knockout human cells | PP4 interaction, 3xFLAG-PP4C IP-MS | – | concentration not given | relative to: CYB5R4 KO over parental | log2 fold change | 0.38 |
| DDX3Y (Homo sapiens, UniProt O15523) | itself | mass photometry | – | – | – | binding | binds |
| B5 (PHYA 1-876 F745E) | itself | SEC | – | – | – | binding | binds |
| B6 (OsCATC T105A) | itself | cross-linking | – | – | – | binding | binds |
| B7 (SPOP M48I) | itself | negative-stain TEM | – | – | – | binding | binds |
| B8 | itself | AUC | – | sedimentation velocity, self-association | – | binding | binds |
| Ivermectin | GABA-A receptor; alpha-1/beta-2/gamma-2 (Rattus norvegicus, UniProt P18508+P62813+P63138) | agonist | HEK293 expressing receptor | – | – | EC50 | 1100 nM |
| B9 (CRYAB) | itself | SEC | – | apo, reducing conditions | – | binding | binds |
| B10 (PRPS3) | CYB5R4 knockout human cells | PP4 interaction, 3xFLAG-PP4C IP-MS | – | concentration not given | relative to: CYB5R4 KO over parental | log2 fold change | 0.5 |
| B11 (SPOP M117V) | itself | negative-stain TEM | – | – | – | binding | binds |
